Published values gathered from unrelated publications.
Protocols differ between the studies behind these lines. ± marks the error that the study gave.

CC(C)OCCOCc1ccc(OCC(O)CN(N=O)C(C)C)cc1 (centres unmarked)
revertant fold increase (Salmonella typhimurium; Ames test; TA100; 500 µg/plate, 30 % hamster S9; relative to: solvent control): 2 fold

C=C(NC(=O)c1csc(-c2nc3c(cc2O)-c2nc(cs2)C(=O)NC(C(C)O)C(=O)NC(=C(C)OC)c2nc(cs2)C(=O)NC2c4nc(cs4)C(=O)NC(COC(=O)c4c5c6c(cccc6n4O)COC(=O)C(OC4CC(C)(O)C(N(C)C)C(C)O4)C2OC5)c2nc-3cs2)n1)C(N)=O (centres unmarked)
AUC(0-t) (ICR mice, Streptococcus pneumoniae ATCC 49169 infected, immunocompromised, blood; intravenous, 32 mg/kg twice daily): 1.2 µM·h

COc1cccc(OC)c1-c1cc(C(=O)NC2(C(=O)O)C3CC4CC(C3)CC2C4)nn1-c1ccc(C(=O)N(C)CCCN(C)C(=O)[C@H](CCCCNC(=O)[C@H](CC(C)C)NC(=O)C2OC2C(=O)O)NC(=O)CN2CCN(CC(=O)[O-])CCN(CC(=O)[O-])CCN(CC(=O)[O-])CC2)cc1C(C)C.[177Lu+3] (mixture of isomers)
tracer uptake (HT-29 tumour model; host not given, pancreas; 72 h, tumour-bearing): 0.07 %ID/g

O=C1NC2(CC2)COc2ncc(F)cc2[C@H]2COCCN2c2ccn3ncc1c3n2
revertant colonies (Salmonella typhimurium; Ames test; TA97a; 5000 µg/plate, 48 h, together with: without S9): 60 ± 9 revertants/plate

O=C(Nc1cnccc1-c1ccc([18F])cc1)c1ccnc(NC(=O)C2CC2)c1
SUV (mice, transgenic, GSK-3β, early-stage, spleen; intravenous, dose not given, 120 min): 0.09

CCN(CC)CC#CCNc1ccnc2cc(Cl)ccc12
revertants per well (Salmonella typhimurium; mini-Ames test; TA1535; 500.0 µg/well, without S9): 3

O=C1C2CC3CC1CC(C(=O)N1CCN(c4ccc([N+](=O)[O-])c5ncccc45)CC1)(C3)C2
revertant fold increase (Salmonella typhimurium; Ames test; TA98; 0.13 µg/well, without S9; relative to: vehicle): 1.2

N#C[C@@H]1CC(F)(F)CN1C(=O)CNC(=O)c1ccnc2c(NC(=O)[C@H](CCCCNC(=O)CCOCCOCCOCCOCCOCCOCCNC(=O)CN3CCN(CC(=O)[O-])CCN(CC(=O)[O-])CCN(CC(=O)[O-])CC3)NC(=O)CCCc3ccc(I)cc3)cccc12.[177Lu+3]
tracer uptake (U-87 MG tumour model; host not given, stomach; 4 h, tumour-bearing): 1.14 %ID/g
